# Measurements collected from several papers.
# Organism: Bacillus subtilis
Structure (SMILES),assay,system,setting,MIC
COc1c(NC(=O)c2ccc(NC(=O)c3ccc(NC(=O)[C@H](Cc4c[nH]nn4)NC(=O)c4ccc(NC(=O)/C(C)=C/c5ccc(O)cc5)cc4)cc3)cc2)ccc(C(=O)O)c1O,broth microdilution,DSM 10,,4 µg/mL
CC[C@H]1OC(=O)[C@H](C)C(=O)[C@H](C)[C@@H](O[C@@H]2O[C@H](C)C[C@H](N(C)C)[C@H]2O)[C@](C)(OC)C[C@@H](C)C(=O)[C@H](C)[C@H]2N(CCCCn3cnc(-c4cccnc4)c3)C(=O)O[C@]12C,microbial growth,DSM402,,0.3 µg/mL
CN[C@H](CC(C)C)C(=O)N[C@H]1C(=O)N[C@@H](CC(N)=O)C(=O)N[C@H]2C(=O)N[C@H]3C(=O)N[C@H](C(=O)N[C@H](C(=O)NCC(N)=O)c4cc(O)cc(O)c4-c4cc3ccc4O)[C@H](O)c3ccc(c(Cl)c3)Oc3cc2cc(c3O[C@@H]2O[C@H](CO)[C@@H](O)[C@H](O)[C@H]2O[C@H]2C[C@](C)(NCc3ccc(OCc4cn(CC(=O)N[C@H](C(=O)N[C@@H](CCN)C(=O)N[C@H]5CCNC(=O)[C@H]([C@@H](C)O)NC(=O)[C@H](CCN)NC(=O)[C@H](CCN)NC(=O)[C@H](CC(C)C)NC(=O)[C@@H](CC(C)C)NC(=O)[C@H](CCN)NC5=O)[C@@H](C)O)nn4)c(OC)c3)[C@H](O)[C@H](C)O2)Oc2ccc(cc2Cl)[C@H]1O,broth microdilution,"168, cation-adjusted Mueller-Hinton broth","20 to 24 h, 37 °C, 0.002% polysorbate 80",≤ 0.008 µg/mL
O=CCNCCOn1c(=O)n(OCCNCCO)c(=O)n(OCCNCCOn2c(=O)n(OCCNCCO)c(=O)n(OCCNCCO)c2=O)c1=O,"microbial growth, broth dilution",,,1 µg/mL
CC[C@H]1OC(=O)[C@H](C)[C@@H](OC(=O)Cc2ccc(OC)cc2)[C@H](C)[C@@H](O[C@@H]2O[C@H](C)C[C@H](N(C)C)[C@H]2O)[C@](C)(OC)C[C@@H](C)C(=O)[C@H](C)[C@@H](O)[C@]1(C)O,microbial growth,DSM402,,4 µg/mL
COc1nc(C(=O)O)ccc1NC(=O)c1ccc(NC(=O)c2ccc(NC(=O)[C@H](Cc3c[nH]nn3)NC(=O)c3ccc(NC(=O)/C(C)=C/c4ccc(O)cc4)cc3)cc2)c(OC)c1O,broth microdilution,DSM 10,,4 µg/mL
CC(C)C[C@@H]1NC(=O)[C@@H](CC(C)C)NC(=O)[C@H](CCN)NC(=O)[C@@H](NC(=O)[C@H](CCN)NC(=O)[C@@H](N)[C@@H](C)O)CCNC(=O)[C@H]([C@@H](C)O)NC(=O)[C@H](CCN)NC(=O)[C@H](CCN)NC1=O,broth microdilution,"168, cation-adjusted Mueller-Hinton broth",,> 138 µM
CC[C@H]1OC(=O)[C@H](C)[C@@H](OC(=O)Cc2cccc([N+](=O)[O-])c2)[C@H](C)[C@@H](O[C@@H]2O[C@H](C)C[C@H](N(C)C)[C@H]2O)[C@](C)(OC)C[C@@H](C)C(=O)[C@H](C)[C@@H](O)[C@]1(C)O,microbial growth,DSM402,,0.3 µg/mL
COc1cc(C(=O)O)ccc1NC(=O)c1ccc(NC(=O)c2ccc(NC(=O)[C@H](Cc3c[nH]nn3)NC(=O)c3ccc(NC(=O)/C(C)=C/c4ccc(O)cc4)cc3)cc2)c(OC)c1O,broth microdilution,DSM 10,,0.25 µg/mL
CN[C@H](CC(C)C)C(=O)N[C@H]1C(=O)N[C@@H](CC(N)=O)C(=O)N[C@H]2C(=O)N[C@H]3C(=O)N[C@H](C(=O)N[C@H](C(=O)N[C@@H](CCCNC(=N)N)C(N)=O)c4cc(O)cc(O)c4-c4cc3ccc4O)[C@H](O)c3ccc(c(Cl)c3)Oc3cc2cc(c3O[C@@H]2O[C@H](CO)[C@@H](O)[C@H](O)[C@H]2O[C@H]2C[C@](C)(NCc3ccc(OCc4cn(CC(=O)N[C@H](C(=O)N[C@@H](CCN)C(=O)N[C@H]5CCNC(=O)[C@H]([C@@H](C)O)NC(=O)[C@H](CCN)NC(=O)[C@H](CCN)NC(=O)[C@H](CC(C)C)NC(=O)[C@@H](CC(C)C)NC(=O)[C@H](CCN)NC5=O)[C@@H](C)O)nn4)c(OC)c3)[C@H](O)[C@H](C)O2)Oc2ccc(cc2Cl)[C@H]1O,broth microdilution,"168, cation-adjusted Mueller-Hinton broth","20 to 24 h, 37 °C, 0.002% polysorbate 80",≤ 0.008 µg/mL

# Repeated from above:
Structure (SMILES),assay,system,setting,MIC
CN[C@H](CC(C)C)C(=O)N[C@H]1C(=O)N[C@@H](CC(N)=O)C(=O)N[C@H]2C(=O)N[C@H]3C(=O)N[C@H](C(=O)N[C@H](C(=O)N[C@@H](CCCNC(=N)N)C(N)=O)c4cc(O)cc(O)c4-c4cc3ccc4O)[C@H](O)c3ccc(c(Cl)c3)Oc3cc2cc(c3O[C@@H]2O[C@H](CO)[C@@H](O)[C@H](O)[C@H]2O[C@H]2C[C@](C)(NCc3ccc(OCc4cn(CC(=O)N[C@H](C(=O)N[C@@H](CCN)C(=O)N[C@H]5CCNC(=O)[C@H]([C@@H](C)O)NC(=O)[C@H](CCN)NC(=O)[C@H](CCN)NC(=O)[C@H](CC(C)C)NC(=O)[C@@H](CC(C)C)NC(=O)[C@H](CCN)NC5=O)[C@@H](C)O)nn4)c(OC)c3)[C@H](O)[C@H](C)O2)Oc2ccc(cc2Cl)[C@H]1O,broth microdilution,"168, cation-adjusted Mueller-Hinton broth","20 to 24 h, 37 °C, 0.002% polysorbate 80",≤ 0.008 µg/mL
